Measured values pooled from the literature.
Numbered parts are unrelated; each lists some results of a single study.

Set 1 — method: RNA Bind-n-Seq; molecule type: RNA; medium: in vitro; tested at: 100 nM; setting: RNA with constant flanks, ends assumed; relative to: input RNA pool; reading: higher = stronger binding
Target: RING finger protein unkempt homolog, zinc fingers 1-6, SBP tag (UNK, Homo sapiens, UniProt Q9C0B0, residues 30-357)
Sequence of UniProt Q9C0B0 (30-357, looked up): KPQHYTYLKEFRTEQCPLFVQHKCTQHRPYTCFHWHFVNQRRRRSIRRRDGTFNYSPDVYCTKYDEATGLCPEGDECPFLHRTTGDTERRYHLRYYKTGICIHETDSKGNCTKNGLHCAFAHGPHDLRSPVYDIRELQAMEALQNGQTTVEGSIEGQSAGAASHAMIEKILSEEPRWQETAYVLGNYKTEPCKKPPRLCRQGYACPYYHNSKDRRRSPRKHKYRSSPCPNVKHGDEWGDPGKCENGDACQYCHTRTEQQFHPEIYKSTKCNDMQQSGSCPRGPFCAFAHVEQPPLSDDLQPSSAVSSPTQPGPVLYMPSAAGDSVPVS
Sequence	bound/input enrichment [ratio]
GGGAGUUCUACAGUCCGACGAUCUAUCCGUGUUGUACCAGCCUAUUAACCUCUUGUCUGUGCACAGCUUCAAAUGUUACCGUCCCGUCCGAUUUUUAUUUAAAAUAUGAAAAACUGCUUUUCCCAAGAUGUUUUUUAAAAACACAACAGAGGAUUGAGCAUCA	0.742
GGGAGUUCUACAGUCCGACGAUCUGGGCAUCCUCUCUGGGGAGCUGCUGGCCGCUCCGCGUUGUUUGAUUUUUGACCUUGACACCGCCGACCGGCUUGUGGUUUUUUUAAUUUAAAGAUAUUAAGACUUAAUUCACUAAAAUUCAACAGAGGAUUGAGCAUCA	0.26
GGGAGUUCUACAGUCCGACGAUCCAUGAUCUUGUUACUGUGAUAUUUUAAAUAUCCACAGUACUCACUUUUUCCAAAUGAUCCCCGUAAUUGCCCCGAAAUAUCUUUCUCUUACCUGUUAUUUAUCAAUUUUUCCCAGUAUUUCAACAGAGGAUUGAGCAUCA	0.657

Set 2 — method: competition protein-binding microarray; molecule type: double-stranded DNA, one strand shown; medium: in vitro; tested at: 2 µM; with: Pho4 competitor, 0.05 µM; reading: higher = stronger binding; all sequences stand within: … GTCTTGATTCGCTTGACGCTGCTG
Target: Centromere-binding protein 1, full length, His-tagged (CBF1, Saccharomyces cerevisiae, UniProt P17106, residues 1-351)
Sequence of UniProt P17106 (whole entry, looked up): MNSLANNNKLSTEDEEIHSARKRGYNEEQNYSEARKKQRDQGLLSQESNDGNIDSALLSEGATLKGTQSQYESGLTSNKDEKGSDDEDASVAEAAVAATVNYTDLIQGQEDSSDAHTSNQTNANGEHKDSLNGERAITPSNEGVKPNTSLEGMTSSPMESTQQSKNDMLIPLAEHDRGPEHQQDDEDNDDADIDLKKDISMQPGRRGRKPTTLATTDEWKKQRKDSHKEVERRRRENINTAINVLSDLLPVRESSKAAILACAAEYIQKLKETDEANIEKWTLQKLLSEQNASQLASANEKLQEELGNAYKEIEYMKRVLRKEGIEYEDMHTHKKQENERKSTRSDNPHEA
Setting: whole 60-bp probe, lowest competitor level
Sequence	fluorescence intensity [a.u.]
AAAGCGGTAATTTTTCACGTGACTTCACATATCTAT	9500
TGATTGTGGAATTGGCAGGCGTGAAGTTCAAATCCG	91.5
CCAACACCGTCTTCACCCGTGCAAATGCCTTCTGCG	67.4
TCATATGTAGATAATAAACCTGCTATAAAACTGTCT	96.5
CGTCCTAGTGATTGTCACTATACTTCCATGAGGAAG	80.7
CTTCTGTAAATTTTTCACGTGCCGTGAAGCGCCCCG	937
CTCCTCCGCGCTTTCCTCGTGCGCCTGCAGCCCTTG	82.6
CTAACGAAGGTTTGTCACACCACTTACAAGCCAAGT	112
CGTCCTAGTGATTTTCACGTGAGGTCCATGAGGAAG	959
ATTTGAAAAATTGGCAATGTGATATTCGGTTAAGGA	99.1
CTAACGAAGGTTTGTAGCGTGGGTGACAAGCCAAGT	65.8
CTTCTGTAAATTTTTCACGTGTCGTGAAGCGCCCCG	634
CGTCCTAGTGATTGTCACGGCACTTCCATGAGGAAG	101
GTCTTGTCTCATTGGGGCGTGGGTGTCCCCACTTCA	85.1
AAATTACTAAGTTGCAAGGTGGGTGACGCCGTATGA	55.7
AAATAAAGCCTAAAGCGCGTGGTGAGTACGAAAAAA	91.9
CGGTATGTTCCGAGCCGCGTGCCGAAGGAGGGCAAA	66.8
GTCTCCATCTTCTTCCACGGGGGCTAGAACACCATC	90.6
TCGCAGATGCCATATCCCGTGCCGAATATACTATAA	276

Set 3 — method: protein binding microarray; molecule type: double-stranded DNA, one strand shown; medium: in vitro; tested at: not given; relative to: not given; reading: higher = stronger binding
Target: Histone acetyltransferase KAT6A, winged helix 2, GST fusion (KAT6A, Homo sapiens, UniProt Q92794, residues 85-181)
Setting: 8-mer, flanks averaged, mean of 2 arrays, mostly near background
Target sequence (chain): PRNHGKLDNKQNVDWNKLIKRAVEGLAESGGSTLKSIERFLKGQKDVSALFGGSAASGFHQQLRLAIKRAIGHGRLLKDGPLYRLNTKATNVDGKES
Sequence	E-score
AGTTCCTA	-0.0838
ATGCATCG	0.0269
ACGAATGA	-0.0498
CGTACTCC	0.00928
CACGTTTC	-0.118
ATGCAATC	0.0594
CTGGGATC	-0.0335
ACCCAGAC	0.12
TCTACCCA	-0.0527
ATACAGAC	0.0285
CACGAACC	0.0595
ACCATTCG	-0.0313
ACCTGCTA	-0.0636
CGGGGGGA	-0.0303
AAGTGTAG	-0.142
AACGACCG	-0.0704
CCAGAGAG	-0.0976
CACACCCG	0.0767
TGGTCTAA	-0.141
CGAGCGCA	0.161
AGGCGCAT	0.0924
CCTGTTAA	-0.0271
CCTCTCCG	0.0508
GTCAGTAA	-0.0114
GAATCCGC	0.122

Set 4 — method: protein-binding microarray; molecule type: double-stranded DNA, one strand shown; medium: in vitro; tested at: 250 nM; setting: 60-bp whole probe; with: salmon DNA 0.4 mg/ml; relative to: random background probes; reading: higher = stronger binding; all sequences stand within: GCCTAGCAC … GTCTTGATTCGCTTGACGCTGCTG
Target: Interferon regulatory factor 5, full length, phosphomimetic (IRF5, Homo sapiens, UniProt Q13568-2, residues 1-514, K96S/S451D/S453D/S456D/S462D)
Sequence	log fluorescence [z-score]
TTAGGCATCGGTATCGGTTAGTGCTAG	5.26
TTAGGTCTCCTTCTCCTTTTGTGCTAG	-0.0195
TTTTTTTTGCAAGCTAAAAAAGTGCTA	1.11
TTAGAACTGGGACTGGATTAGTGCTAG	-0.346
GGCGCTTTTTTTCCGAGTGAGTGCTAG	0.286
ACCCATTGAGATTTCCATTAGTGCTAG	0.0204
TTAGTTATCGGGTTTCGATTAGTGCTA	8.12
GACGGTATCGGGACTGCGGACGTGCTA	1.31
TCAATATTCATTTTATTACTGTGCTAG	1.16
TTAGATTTCGGGTTTAGATTAGTGCTA	4.97
GACGATTTCAGTTTCGAGATGTGCTAG	7.31
GACGGTTTCGGTTTCGGGAAGTGCTAG	11
GACGGTATCCATATCCTGACGTGCTAG	0.101
GACGGTCTCCTTTCCCTGACGTGCTAG	0.401
GACGGTTTCCTACTGCTGACGTGCTAG	0.569
TTAGTTTTCGACTTTCGGTTAGTGCTA	10.4
TCATCGATTTCTCTTTCCACTGTGCTA	2.38
GACGGTCTCCATTTCCTGACGTGCTAG	0.0359
GACGGTAACGGTATCGGGACGTGCTAG	0.731

A few entries again (set 3):
Sequence	E-score
CGTACTCC	0.00928
CACGTTTC	-0.118
ATGCAATC	0.0594
CTGGGATC	-0.0335
